Published values of several laboratories.
A part holds a random share of what one study measured. Substitutions count along the parent as printed.

Block 1
Target: Hepatocyte nuclear factor 3-alpha (Foxa1, Mus musculus, UniProt P35582, residues 1-468, full length assumed)
Method: EMSA with sequencing
Molecule type: double-stranded DNA, one strand shown
Sample: in vitro
Tested at: 10 and 20 nM
Notes: whole designed probe, mean of two concentrations, ends assumed
Baseline: negative control set to 0
Reading: higher = stronger binding
Endpoint: normalised bound fraction
All sequences stand within: GTGAGCGGTGCCCATTGATGGGGAAC … TTTCACTGGGATCGTGGGGAC
Residues (chain): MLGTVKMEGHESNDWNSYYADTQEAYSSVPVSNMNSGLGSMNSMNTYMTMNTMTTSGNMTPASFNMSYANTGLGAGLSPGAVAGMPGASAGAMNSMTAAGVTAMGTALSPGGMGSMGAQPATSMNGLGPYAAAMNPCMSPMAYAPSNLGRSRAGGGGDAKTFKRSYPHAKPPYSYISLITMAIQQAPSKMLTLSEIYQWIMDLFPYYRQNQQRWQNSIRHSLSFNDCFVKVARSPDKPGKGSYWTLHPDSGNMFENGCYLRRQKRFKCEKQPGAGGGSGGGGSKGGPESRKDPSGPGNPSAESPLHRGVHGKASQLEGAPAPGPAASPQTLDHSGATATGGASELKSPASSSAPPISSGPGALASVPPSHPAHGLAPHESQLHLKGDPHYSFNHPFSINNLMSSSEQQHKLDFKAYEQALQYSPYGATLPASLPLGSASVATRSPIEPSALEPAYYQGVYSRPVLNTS
Sequence = GCAGTTCTGTGGTAGTGGGCATCAGTAAAGCTCTTCTCCAGGGCTAGGCTTCTCCTTATTTCTAGAGTGTCAGGGAAAAGGACTTCTTCAAAGTAATCTAGAAGTGCAATATTCACAAAGGACACATACATTCTCAGTGCTGTATTTGGCTGCAACTTCAGGGAGGTCAGATGGTCGTGCAGTTTACCACTGG; result = -0.0814 ratio
Sequence = AATAGCGCTCTGGAGAGAAGGTCCGTTCCATGCCCAGGTAGGGAGGAGGGGGAAAAATGATACTGGCGGGCAGGGAGAGGGGAAGGCAAGAAAGCAAACAGGCGTGGAAGAGCTGTGACGTCAAATCTGACTTCTTTTGTCTGTAGACGGGGGAATCCAGGGTGACTGGGTATAATCTGTATTATCTAGGTCC; result = 0.0591 ratio
Sequence = TGATACAGAATTTCTCAGTATAATTACCTCCAGCCAGGTTGCTTTTTTAGCTCAAAAGAAAGATAAAAGGCGGAGTCCTGTAAATAAAGGGAATGTAAACATGGAGACTGAACCAAAGGCAAGTTACGGGGAGATAAGAATACCTGAAGAGAATTCGATTCAGCTTGATGGTTTTACAGAAGCATATGAAAGT; result = 0.288 ratio
Sequence = ACTTATAAATGGACACCCAATTTTCAGCTATAACAAAGAATGAAGTACTTATACATGGTAAAATATTGGTGAAATTTGAAAGCATTATGCTAAGTACTCTAAAGGACAAATATTACTTGATTTTATTCACATGAAACATCAGGAATTGGCAAATCAACTGGGATATAAATCAGATTAGTGGTCATTAGGGCTC; result = 0.0188 ratio
Sequence = GGCTCCAAACGGCTGAATCAGCATTTTCAGAAACAAAGTGTTCTAGGCCTGGCCTTTTAAACAGCAGCAACGAGCAAGATGTGCATTAACGCATATTTACTCACGAGCTCTCCTTGTTTTGGTCTTTCCCCCCTCCCCCCCATCTCTTGAATGAAACTGGGCACCAAGTTTGCAAGAAAATATTCTTTCAAAC; result = 0.107 ratio

Block 2
Target: CCNF, cyclin fold, Cln2 fusion (human)
Method: yeast growth competition, sequencing
Sample: yeast
Notes: strong parent motif
Baseline: not given
Reading: higher = stronger binding
Endpoint: normalised enrichment score
Starting sequence: PKMYT1 docking peptide (human); SFEPRNLLSLFED
Substitution = S9P; result = 2.5
Substitution = P4I; result = -0.385
Substitution = D13W; result = 1.39
Substitution = E3Q; result = 2.97
Substitution = S1F; result = 2.36
Substitution = S1P; result = 0.58
Substitution = F2V; result = 0.839
Substitution = L10M; result = 0.647
Substitution = F2H; result = 0.148
Substitution = P4E; result = -1.27
Substitution = N6T; result = -0.339

Block 3
Target: RNA binding protein fox-1 homolog 2, RRM domain, GST-SBP tag (RBFOX2, Homo sapiens, UniProt O43251-10, residues 100-194)
Method: RNA Bind-n-Seq
Molecule type: RNA
Sample: in vitro
Tested at: 365 nM
Notes: natural RNA segment, single round, ends assumed
Baseline: no-protein control
Reading: higher = stronger binding
Endpoint: RBNS enrichment (R)
All sequences stand within: GGGAGUUCUACAGUCCGACGAUC … UGGAAUUCUCGGGUGCCAA
Construct (chain): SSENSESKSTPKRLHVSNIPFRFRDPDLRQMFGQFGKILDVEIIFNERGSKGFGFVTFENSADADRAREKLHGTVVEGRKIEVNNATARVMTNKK
Sequence = GGAGACGGAAGAUCUUUUAUUUUCUAUUAUUUAUAACUUCAGACUUGGGCCCCCUGUUCUUUCUUUCCCAUUAACUUGAGUGACCUGUGUGAGAGACAGACAGAUGCCCC; result = 0.334
Sequence = UUGGUGAUUCUCCUCAAGUACUAGCUGCCUAAGCUACAGAGGGCACUGGCCUGCUCCUACAGAAGGAAGCAAUCAUAGCUUCUAUUGUUUUAAACAAAACAACAGGAAGA; result = 0.219
Sequence = GCGCGCGUGUGUGUGUGCUUCACCUUGAUUGAGUGGCAUUGGCUCACAUGACCCAGGAGAUUCCCAGACUCUGUUAGUAGUGUCUAGGAACUUGUGUUCCAGCUGAGGAG; result = 0.641
Sequence = AUAAAGAUCCCCUACAGCAUUUCUUUAUUAGUUUCAUCAGAUUUGUUCUAUGCAUUAUUCUUCAAGAGAAAUUAGUUUUCAAAAUGCCCACCAAAAUACCUAGUAAUUAA; result = 0.772
Sequence = AGCUUAGUUUGUUACUAUGUGUGAUUUAGCAUCUGUCGCACUUGUGUAAAUAUGGAGUAAGUAUUGUAAACUAUUUAAUUGCUGCGAUUGUUGGGUUAUACAUACAUUUA; result = 13.3
Sequence = UUCUUUUGAAUGUUUUGAACCCAACUACUUGUCAUAGAUGUUUGACUGUGUCAAAAGCUGUGAGCAGCAAAAUAUAAUCCAUAUGACCUUUUCUCUUGCACUUCACUUGU; result = 1.77
Sequence = CUGCAUGGCUCUCUUGUAGCCAAAGGUGGGGAGAUUCUGCGUGGGAGAACUUGGUGUCUCACCCUGGGUACCCAUUCCUGGUGUAUGGAAGCACCUCCUUCACGGUCAGG; result = 0.617
Sequence = GCAUGUGCACCAGGUUGGUGUUCACCAGCUCAUGUCUUCCCCACAUCUCUUCUUGCCAGUAAGCAGCUUUGGUGGGCAGCAGCAGCUCAUGAAUGGCAAGCUGACAGCUU; result = 3.87
Sequence = GAGAGCAGGGGUUUGAAGCCAGCUGUCGAAGAGCAUCCCUGCUGUCUUAAGAAGCUUUUUCCCCAUAGUGCCUAUAGUUUCCAAAGAAACUCAACUUCCUAACUGUGUUA; result = 0.341
Sequence = ACAGGCGUUUCUGACCUGCUGGGCCGAGAAUGGGUAAGUUGUCUGGAGUCAGGUGGGCCCACGUAGGACAGGGUCACAAAGCCUGGGUUUGUUUCUGGGUACUUUGCGCC; result = 1.05

Block 4
Target: Fragile X messenger ribonucleoprotein 1, C-terminal low-complexity region (Fmr1, Mus musculus, UniProt P35922)
Method: RNA Bind-n-Seq
Molecule type: RNA
Sample: in vitro
Tested at: 200 nM
Notes: whole 134-nt RNA, ends assumed
Together with: 150 mM LiCl
Baseline: input library
Reading: higher = stronger binding
Endpoint: log2 enrichment
All molecules: 7-deaza-guanosine replaces G
Sequence = GGGAGUUCUACAGUCCGACGAUCCCUGUGCUACACAUCGUAUGUACCGAAUCGGGGUUUUUUUGGUUUUUUUGGUUUUUUUGGGAAAGUAUUAUGUUACGCCGUUCGGAUCUGUGGAAUUCUCGGGUGUCAAGG; result = -0.439
Sequence = GGGAGUUCUACAGUCCGACGAUCCCUGUGCUACACAUCGUAUGUACCGAAUCGGGUUUUUUGGGUUUUUUGGGGUUUUUUGGGAAAGUAUUAUGUUACGCCGUUCGGAUCUGCUGGAAUUCUCGGGUGUCAAGG; result = -0.882
Sequence = GGGAGUUCUACAGUCCGACGAUCAAGUCCUGUGCUACACAUCGUAUGUACCGAAUCGGUUUUUUUGGAAAAAGGAAAGGAAAGUAUUAUGUUACGCCGUUCGGAUCUGCACUUUGGAAUUCUCGGGUGUCAAGG; result = -2.75
Sequence = GGGAGUUCUACAGUCCGACGAUCGUCCUGUGCUACACAUCGUAUGUACCGAAUCGGGUUUUUGGGGUUUUUGGGUUUUUGGGAAAGUAUUAUGUUACGCCGUUCGGAUCUGCAUGGAAUUCUCGGGUGUCAAGG; result = -1.03

Block 5
Target: Interferon regulatory factor 5, full length, phosphomimetic (IRF5, Homo sapiens, UniProt Q13568-2, residues 1-514, K96S/S451D/S453D/S456D/S462D)
Method: protein-binding microarray
Molecule type: double-stranded DNA, one strand shown
Sample: in vitro
Tested at: 250 nM
Notes: 60-bp whole probe
Together with: salmon DNA 0.4 mg/ml
Baseline: random background probes
Reading: higher = stronger binding
Endpoint: log fluorescence
All sequences stand within: GCCTAGCAC … GTCTTGATTCGCTTGACGCTGCTG
Sequence = GACAGACTGGACTATCGGGACGTGCTA; result = 0.93 z-score
Sequence = TTAGGTATCGGGGCTGGGTTAGTGCTA; result = 1.33 z-score
Sequence = GACGATCTCAGTCTCCAGACGTGCTAG; result = -0.196 z-score
Sequence = TTTATTTTTACATTATTACCGTGCTAG; result = 1.41 z-score
Sequence = TTAGATATCGGTATCGGTTAGTGCTAG; result = 9.02 z-score
Sequence = TTAGATCTTAGACTGGATTAGTGCTAG; result = 0.0833 z-score
Sequence = GACCGACTGGGGTATCGGGACGTGCTA; result = 0.122 z-score
Sequence = ATGTGTTTACATATGTTTTTGTGCTAG; result = 0.725 z-score
Sequence = GACGGTTTCCGTTCCGGGACGTGCTAG; result = 1.25 z-score
Sequence = TTCGGACTGGGGTATCGGTTAGTGCTA; result = 2.62 z-score
Sequence = TTAGAACTGAGTATCGAGTAGTGCTAG; result = 2.39 z-score
Sequence = TCCATCATTGCTTTCTCTTTGTGCTAG; result = 2.22 z-score
Sequence = GACGATTTCGGGTATAGAGACGTGCTA; result = 4.22 z-score
Sequence = GACAGTATCGGGTATCGGGACGTGCTA; result = 5.9 z-score
Sequence = TTAGATTTCTGACTGGATTAGTGCTAG; result = 0.637 z-score

Block 6
Target: Sal-like protein 4, full length isoform A (SALL4, Homo sapiens, UniProt Q9UJQ4, residues 1-1053)
Sequence of UniProt Q9UJQ4 (whole entry, looked up): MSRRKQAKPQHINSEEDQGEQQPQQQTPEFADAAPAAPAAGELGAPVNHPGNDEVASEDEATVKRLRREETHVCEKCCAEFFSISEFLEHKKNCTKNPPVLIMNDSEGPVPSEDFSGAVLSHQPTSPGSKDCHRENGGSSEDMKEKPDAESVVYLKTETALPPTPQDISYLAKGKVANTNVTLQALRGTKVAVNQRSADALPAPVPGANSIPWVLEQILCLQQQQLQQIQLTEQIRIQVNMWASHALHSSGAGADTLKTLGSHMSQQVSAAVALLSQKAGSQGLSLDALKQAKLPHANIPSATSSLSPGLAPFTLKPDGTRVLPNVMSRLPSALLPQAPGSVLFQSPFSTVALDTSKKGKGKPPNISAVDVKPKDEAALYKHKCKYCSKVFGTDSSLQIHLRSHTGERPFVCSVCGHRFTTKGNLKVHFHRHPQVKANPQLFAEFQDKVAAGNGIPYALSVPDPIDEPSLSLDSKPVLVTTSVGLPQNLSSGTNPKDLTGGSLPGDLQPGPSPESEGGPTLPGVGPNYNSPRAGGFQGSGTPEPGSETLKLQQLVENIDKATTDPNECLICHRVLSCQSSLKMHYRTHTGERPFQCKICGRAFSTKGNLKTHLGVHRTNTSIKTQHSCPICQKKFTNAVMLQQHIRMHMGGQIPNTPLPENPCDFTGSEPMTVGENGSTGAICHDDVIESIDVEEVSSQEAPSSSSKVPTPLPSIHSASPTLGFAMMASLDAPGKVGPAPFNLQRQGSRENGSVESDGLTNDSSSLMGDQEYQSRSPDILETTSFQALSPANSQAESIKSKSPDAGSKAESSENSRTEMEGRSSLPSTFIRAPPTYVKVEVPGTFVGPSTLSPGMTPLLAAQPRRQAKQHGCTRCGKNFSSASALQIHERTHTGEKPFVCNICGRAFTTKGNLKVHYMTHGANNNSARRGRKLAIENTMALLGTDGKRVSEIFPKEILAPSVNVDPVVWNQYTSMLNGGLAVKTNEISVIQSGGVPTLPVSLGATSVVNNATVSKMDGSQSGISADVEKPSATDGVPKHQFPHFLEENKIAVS
Method: universal PBM
Molecule type: double-stranded DNA, one strand shown
Sample: in vitro
Tested at: 600 nM
Notes: 8-mer, flanks averaged, mean of replicates
Reading: higher = stronger binding
Endpoint: E-score
Sequence = CTCGATAA; result = 0.138
Sequence = ACTTAACG; result = -0.0243
Sequence = CGATCCCG; result = -0.301
Sequence = ATCGTAGC; result = 0.0551
Sequence = CGTGACGA; result = -0.0812
Sequence = GACTCTAC; result = -0.149
Sequence = AACCGCCA; result = -0.219
Sequence = CCCATACG; result = -0.102
Sequence = CAAGATGA; result = -0.0301
Sequence = TATTAAGA; result = 0.297
Sequence = GCTTCCGA; result = -0.0475
Sequence = TGCCCTAA; result = -0.0439

Block 7
Target: ABI1, truncated, D143A, DHFR fusion (Arabidopsis thaliana)
Method: DHFR PCA, deep sequencing
Sample: yeast
Notes: methotrexate growth selection, single substitutions
Together with: (+)-ABA 0 µM
Baseline: wild-type fitted maximum
Reading: higher = stronger binding
Endpoint: relative binding score
Starting sequence: PYL1, truncated, DHFR fusion (Arabidopsis thaliana); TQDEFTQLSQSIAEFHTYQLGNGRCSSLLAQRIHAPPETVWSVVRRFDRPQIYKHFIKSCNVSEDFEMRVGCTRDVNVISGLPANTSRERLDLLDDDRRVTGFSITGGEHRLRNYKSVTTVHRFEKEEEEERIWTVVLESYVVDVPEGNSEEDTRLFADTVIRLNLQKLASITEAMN; partner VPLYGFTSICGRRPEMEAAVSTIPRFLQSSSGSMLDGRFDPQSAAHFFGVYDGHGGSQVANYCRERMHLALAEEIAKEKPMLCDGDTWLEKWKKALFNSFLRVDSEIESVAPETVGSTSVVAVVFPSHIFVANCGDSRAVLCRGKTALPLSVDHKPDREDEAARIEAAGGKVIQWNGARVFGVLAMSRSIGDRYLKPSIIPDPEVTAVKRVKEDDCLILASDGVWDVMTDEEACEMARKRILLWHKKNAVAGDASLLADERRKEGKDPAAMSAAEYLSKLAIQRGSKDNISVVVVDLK
Substitution = M68K; result = 0.499%
Substitution = R49E; result = 10.3%
Substitution = S59M; result = -3.97%
Substitution = R90M; result = 9.11%
Substitution = T101V; result = 35.1%
Substitution = R90I; result = 1.84%
Substitution = M68P; result = 4.79%
Substitution = E131S; result = 38.6%
Substitution = P50D; result = 0.188%
Substitution = D92E; result = 3.53%

A few entries again (block 7):
Substitution = M68K; result = 0.499%
Substitution = R49E; result = 10.3%
Substitution = S59M; result = -3.97%
Substitution = R90M; result = 9.11%
Substitution = T101V; result = 35.1%
Substitution = R90I; result = 1.84%
